Published values gathered from unrelated publications.
Numbered parts are unrelated; each lists some results of a single study.

Set 1
Target: Histone acetyltransferase KAT6A, winged helix 1, GST fusion (KAT6A, Homo sapiens, UniProt Q92794, residues 1-85)
Technique: protein binding microarray
Form: double-stranded DNA, one strand shown
Sample: in vitro
Concentration: not given
Setting: 8-mer, flanks averaged, mean of 2 arrays, mostly near background
Relative to: not given
Direction: higher = stronger binding
Quantity: E-score
Construct (chain): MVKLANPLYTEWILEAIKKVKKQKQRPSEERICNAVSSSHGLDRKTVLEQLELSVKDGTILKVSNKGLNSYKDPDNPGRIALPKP
AGAGGCCG: 0.118
AATCACCT: -0.103
AGATACAG: -0.103
CGTACATA: 0.0639
AGAGAGAT: -0.257
CTCATAGC: -0.112

Set 2
Target: Centromere-binding protein 1, full length, N-terminal tag (CBF1, Saccharomyces cerevisiae, UniProt P17106, residues 1-351)
UniProt P17106, sequence (whole entry, looked up): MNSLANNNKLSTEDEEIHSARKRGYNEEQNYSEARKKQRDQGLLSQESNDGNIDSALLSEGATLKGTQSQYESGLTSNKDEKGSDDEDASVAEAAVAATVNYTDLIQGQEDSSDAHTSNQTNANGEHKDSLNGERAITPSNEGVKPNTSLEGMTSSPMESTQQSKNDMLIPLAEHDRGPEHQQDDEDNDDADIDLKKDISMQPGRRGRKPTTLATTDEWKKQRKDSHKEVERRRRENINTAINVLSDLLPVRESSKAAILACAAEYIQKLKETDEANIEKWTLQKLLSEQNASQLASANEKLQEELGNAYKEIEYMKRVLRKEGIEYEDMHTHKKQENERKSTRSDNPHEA
Technique: protein-binding microarray
Form: double-stranded DNA, one strand shown
Sample: in vitro
Concentration: 0.8 µM
Setting: whole 60-bp probe, no competitor
Direction: higher = stronger binding
Quantity: fluorescence intensity
CTAAGGATTTTTTAAATCGTGACATGTGCTTTATTCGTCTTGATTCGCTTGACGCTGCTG: 2100 a.u.
CTATCTTTTCCACACCACCTTCAAATTTAAGAATTCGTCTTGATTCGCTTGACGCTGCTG: 701 a.u.
GAACATAGTTTAGATCACGCTTAATAATGTCAATAGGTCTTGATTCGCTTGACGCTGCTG: 883 a.u.
GAACTTCATTTTCTTCACGCGCCATACTCGGATTAGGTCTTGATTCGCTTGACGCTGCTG: 625 a.u.
GAATAATGAAAGAATCACGGCACGTTACTAATTTAGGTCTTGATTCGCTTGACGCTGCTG: 1230 a.u.

Set 3
Target: Interferon regulatory factor 7, full length, phosphomimetic (IRF7, Homo sapiens, UniProt Q92985, residues 1-503, S471D/S472D/S475D/S476D/S477D/S483D/S484D/S487D)
Technique: protein-binding microarray
Form: double-stranded DNA, one strand shown
Sample: in vitro
Concentration: 2200 nM top
Setting: 60-bp whole probe
Added: salmon DNA 0.4 mg/ml
Relative to: random background probes
Direction: higher = stronger binding
Quantity: fitted relative affinity
Residues (chain): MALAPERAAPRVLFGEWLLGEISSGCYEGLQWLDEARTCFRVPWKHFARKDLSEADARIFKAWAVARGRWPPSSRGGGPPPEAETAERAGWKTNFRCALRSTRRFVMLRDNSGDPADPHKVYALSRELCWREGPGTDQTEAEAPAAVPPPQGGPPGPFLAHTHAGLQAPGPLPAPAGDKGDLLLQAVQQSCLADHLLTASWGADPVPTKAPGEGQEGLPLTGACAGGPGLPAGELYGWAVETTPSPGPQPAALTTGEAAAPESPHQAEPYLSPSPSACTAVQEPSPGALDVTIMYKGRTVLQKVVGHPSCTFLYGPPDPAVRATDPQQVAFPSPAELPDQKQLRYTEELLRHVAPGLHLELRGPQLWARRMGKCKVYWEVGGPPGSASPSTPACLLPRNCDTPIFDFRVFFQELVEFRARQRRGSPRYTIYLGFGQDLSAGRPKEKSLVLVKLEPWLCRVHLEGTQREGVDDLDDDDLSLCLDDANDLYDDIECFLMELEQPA
GCCTAGCACGACGGTCTCGGTCTCGGGAGGTGCTAGGTCTTGATTCGCTTGACGCTGCTG: 0.00468 z-score
GCCTAGCACCACATTGTGCAATCTTAATAAGTGCTAGTCTTGATTCGCTTGACGCTGCTG: 0.894 z-score
GCCTAGCACTTAGGTATCCGTCTCGGTTAGTGCTAGGTCTTGATTCGCTTGACGCTGCTG: 0.429 z-score
GCCTAGCACGCCGGTTTCCTTTCCCTGACGTGCTAGGTCTTGATTCGCTTGACGCTGCTG: 5.41 z-score

Mixed results
PhoQ, residues 284 288 289 292 302 303 MLMVEA — fold induction (PhoP, residues 12 14 15 18 19 NHFIF (Escherichia coli, UniProt P23836); Sort-seq, item: YFP reporter; E. coli; PhoQ-PhoP variant library, added: 10 µM Mg2+; relative to: high Mg2+ state, higher = stronger signaling): 4.1

Repeated from above (set 2):
GAACTTCATTTTCTTCACGCGCCATACTCGGATTAGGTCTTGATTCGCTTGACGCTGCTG: 625 a.u.
GAATAATGAAAGAATCACGGCACGTTACTAATTTAGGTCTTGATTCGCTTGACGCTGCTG: 1230 a.u.
